Measured values gathered from unrelated publications.
Lines come from different studies, so protocols differ. ≈ marks a conversion by molar mass, not a printed value.
UniProt Q99755, sequence (whole entry, looked up): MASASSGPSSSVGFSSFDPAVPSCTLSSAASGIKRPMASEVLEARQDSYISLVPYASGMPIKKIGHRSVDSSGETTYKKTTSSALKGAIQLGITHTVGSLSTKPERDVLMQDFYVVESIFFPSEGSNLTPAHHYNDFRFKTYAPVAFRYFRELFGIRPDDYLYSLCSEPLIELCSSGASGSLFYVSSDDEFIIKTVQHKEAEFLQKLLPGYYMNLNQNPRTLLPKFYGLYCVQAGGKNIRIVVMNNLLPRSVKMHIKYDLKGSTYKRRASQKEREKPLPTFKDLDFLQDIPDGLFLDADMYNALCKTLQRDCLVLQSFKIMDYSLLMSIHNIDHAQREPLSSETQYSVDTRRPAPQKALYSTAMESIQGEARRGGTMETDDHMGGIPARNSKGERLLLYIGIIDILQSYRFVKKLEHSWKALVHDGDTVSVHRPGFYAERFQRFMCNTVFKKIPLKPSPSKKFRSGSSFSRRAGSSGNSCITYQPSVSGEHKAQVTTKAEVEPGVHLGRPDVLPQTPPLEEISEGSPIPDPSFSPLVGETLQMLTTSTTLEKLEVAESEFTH
UniProt P10632, sequence (whole entry, looked up): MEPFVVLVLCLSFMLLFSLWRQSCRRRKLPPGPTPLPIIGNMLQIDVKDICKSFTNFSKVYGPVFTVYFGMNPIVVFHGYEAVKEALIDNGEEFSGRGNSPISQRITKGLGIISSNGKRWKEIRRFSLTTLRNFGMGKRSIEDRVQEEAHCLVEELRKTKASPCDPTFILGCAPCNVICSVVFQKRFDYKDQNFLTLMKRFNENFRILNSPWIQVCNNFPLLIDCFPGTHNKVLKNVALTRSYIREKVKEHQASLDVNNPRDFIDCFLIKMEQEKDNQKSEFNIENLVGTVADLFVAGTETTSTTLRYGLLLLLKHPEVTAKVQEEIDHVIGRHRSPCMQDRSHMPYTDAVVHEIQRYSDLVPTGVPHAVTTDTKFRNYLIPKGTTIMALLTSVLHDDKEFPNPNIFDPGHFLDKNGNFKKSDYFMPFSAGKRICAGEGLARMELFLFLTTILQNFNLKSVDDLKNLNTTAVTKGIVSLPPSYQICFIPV
UniProt O33336, sequence (whole entry, looked up): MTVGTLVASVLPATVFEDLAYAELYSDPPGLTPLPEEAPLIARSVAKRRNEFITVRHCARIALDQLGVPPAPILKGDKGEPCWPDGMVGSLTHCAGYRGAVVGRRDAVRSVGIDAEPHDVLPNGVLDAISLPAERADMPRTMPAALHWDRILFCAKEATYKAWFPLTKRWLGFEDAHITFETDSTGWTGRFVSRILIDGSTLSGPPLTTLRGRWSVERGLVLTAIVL
UniProt Q96Q40, sequence (whole entry, looked up): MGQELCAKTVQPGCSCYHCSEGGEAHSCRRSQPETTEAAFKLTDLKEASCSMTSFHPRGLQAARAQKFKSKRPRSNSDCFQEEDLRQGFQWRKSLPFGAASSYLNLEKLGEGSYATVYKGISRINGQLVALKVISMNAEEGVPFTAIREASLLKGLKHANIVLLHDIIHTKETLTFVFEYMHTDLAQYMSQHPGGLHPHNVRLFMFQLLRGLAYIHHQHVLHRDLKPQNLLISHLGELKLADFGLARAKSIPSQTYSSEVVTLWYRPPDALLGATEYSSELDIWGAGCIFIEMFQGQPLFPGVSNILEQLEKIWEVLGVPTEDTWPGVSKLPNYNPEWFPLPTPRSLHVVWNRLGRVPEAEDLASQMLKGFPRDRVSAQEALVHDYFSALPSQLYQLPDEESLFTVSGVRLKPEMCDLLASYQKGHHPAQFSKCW
UniProt Q6ZN16, sequence (whole entry, looked up): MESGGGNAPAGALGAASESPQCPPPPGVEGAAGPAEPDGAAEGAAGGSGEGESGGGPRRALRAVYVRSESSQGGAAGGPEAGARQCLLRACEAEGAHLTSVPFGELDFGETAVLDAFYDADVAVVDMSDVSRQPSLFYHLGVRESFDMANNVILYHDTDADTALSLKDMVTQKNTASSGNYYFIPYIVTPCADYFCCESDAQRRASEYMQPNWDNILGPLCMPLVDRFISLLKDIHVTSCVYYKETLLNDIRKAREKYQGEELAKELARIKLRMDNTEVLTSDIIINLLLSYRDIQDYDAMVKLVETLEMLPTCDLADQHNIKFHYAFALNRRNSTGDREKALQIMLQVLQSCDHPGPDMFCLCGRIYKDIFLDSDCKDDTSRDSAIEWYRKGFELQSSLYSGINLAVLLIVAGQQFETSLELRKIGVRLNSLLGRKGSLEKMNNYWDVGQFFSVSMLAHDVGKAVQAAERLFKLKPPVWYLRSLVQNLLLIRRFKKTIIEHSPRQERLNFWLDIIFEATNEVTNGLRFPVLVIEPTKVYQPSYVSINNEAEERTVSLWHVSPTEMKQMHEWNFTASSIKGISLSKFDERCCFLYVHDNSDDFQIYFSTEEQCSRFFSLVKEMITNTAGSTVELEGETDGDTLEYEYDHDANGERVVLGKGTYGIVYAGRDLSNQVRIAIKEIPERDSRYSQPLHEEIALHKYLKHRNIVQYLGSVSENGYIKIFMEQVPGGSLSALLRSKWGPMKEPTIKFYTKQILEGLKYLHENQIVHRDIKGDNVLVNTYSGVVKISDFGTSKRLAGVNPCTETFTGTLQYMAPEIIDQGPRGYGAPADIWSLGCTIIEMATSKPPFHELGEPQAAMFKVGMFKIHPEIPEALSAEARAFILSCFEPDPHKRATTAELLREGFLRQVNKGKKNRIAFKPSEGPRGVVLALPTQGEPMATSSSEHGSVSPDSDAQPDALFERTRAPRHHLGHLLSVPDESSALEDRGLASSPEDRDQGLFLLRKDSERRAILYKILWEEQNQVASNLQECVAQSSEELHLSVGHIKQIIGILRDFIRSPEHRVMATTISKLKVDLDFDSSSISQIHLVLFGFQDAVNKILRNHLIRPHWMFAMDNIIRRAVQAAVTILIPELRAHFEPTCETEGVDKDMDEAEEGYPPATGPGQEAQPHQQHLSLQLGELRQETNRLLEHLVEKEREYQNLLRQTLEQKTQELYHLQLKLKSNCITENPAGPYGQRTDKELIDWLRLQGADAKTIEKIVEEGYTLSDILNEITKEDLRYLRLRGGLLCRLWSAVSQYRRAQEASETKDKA
UniProt Q9P0L2, sequence (whole entry, looked up): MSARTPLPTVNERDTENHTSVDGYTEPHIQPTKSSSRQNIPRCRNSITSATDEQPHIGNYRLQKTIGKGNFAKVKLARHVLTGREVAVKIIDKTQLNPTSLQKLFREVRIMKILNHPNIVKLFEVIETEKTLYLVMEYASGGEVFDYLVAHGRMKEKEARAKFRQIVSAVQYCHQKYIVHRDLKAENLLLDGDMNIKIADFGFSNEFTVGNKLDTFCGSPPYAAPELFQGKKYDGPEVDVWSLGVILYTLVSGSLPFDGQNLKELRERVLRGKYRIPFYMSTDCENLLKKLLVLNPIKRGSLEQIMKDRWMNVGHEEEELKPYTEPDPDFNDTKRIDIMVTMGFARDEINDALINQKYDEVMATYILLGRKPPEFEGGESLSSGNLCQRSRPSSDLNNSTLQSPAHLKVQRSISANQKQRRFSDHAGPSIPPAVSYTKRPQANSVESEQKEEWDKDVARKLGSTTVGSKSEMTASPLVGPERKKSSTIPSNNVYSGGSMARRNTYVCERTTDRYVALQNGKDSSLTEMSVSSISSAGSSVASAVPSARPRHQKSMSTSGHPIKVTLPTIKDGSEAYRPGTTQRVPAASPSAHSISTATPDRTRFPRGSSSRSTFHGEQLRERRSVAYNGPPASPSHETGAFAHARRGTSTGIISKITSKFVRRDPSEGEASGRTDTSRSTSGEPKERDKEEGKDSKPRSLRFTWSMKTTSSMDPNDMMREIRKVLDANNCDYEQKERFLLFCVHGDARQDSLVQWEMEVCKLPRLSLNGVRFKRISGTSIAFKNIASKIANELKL

| Structure (SMILES) | target or system | test | system | conditions | measurement | value |
| --- | --- | --- | --- | --- | --- | --- |
| Nc1ncc(-c2nc(N3CCOCC3)nc(N3CCOCC3)n2)c(C(F)F)n1 | Phosphatidylinositol 4-phosphate 5-kinase type-1 alpha (PIP5K1A, Homo sapiens, UniProt Q99755) | binding, competition with immobilised ligand | – | 10 µM | remaining binding | 100% |
| CC(C)C[C@H](NC(=O)[C@@H](NC(=O)/C=C/c1ccc(-c2ccccc2)cc1)C(C)C)C(=O)N[C@H](C=O)C[C@@H]1CCCNC1=O | A549 | cell growth or viability, MTT | – | 24 h | CC50 | > 100 µM |
| [2H]c1c([2H])c([C@]2([2H])CCCN2C(=O)C(C)(C)Oc2ccc3cn[nH]c3c2)c([2H])c([2H])c1C([2H])([2H])[2H] | Serine/threonine-protein kinase MARK1 (MARK1, Homo sapiens, UniProt Q9P0L2) | binding, competition with immobilised ligand | – | 1 µM | remaining binding | 82% |
| CC[C@@H](C)[C@H]1NC(=O)[C@@H](Cc2ccc(O)cc2)NC(=O)[C@@H](CCCNC(=N)N)NC(=O)[C@@H](Cc2ccc(O)cc2)NC(=O)[C@H]([C@@H](C)CC)NC(=O)[C@H]([C@@H](C)CC)NC(=O)[C@H](C)NC(=O)[C@H](C(C)C)NC(=O)[C@H](C(C)C)NC(=O)CNC(=O)[C@H](C(C)C)NC1=O | – | – | aqueous buffer | 18 h, pH 7.4 | solubility | 240 µM |
| CCC[C@@](N)(CO)CCc1ccc(OCCCCCC(C)C)cc1 | Cytochrome P450 2C8 (CYP2C8, Homo sapiens, UniProt P10632) | enzyme activity, inhibitor | – | – | IC50 | 39.7 µM |
| N.N.[Cl][Pt][Cl] | DOHH-2 | cell growth or viability, ATP luminescence | – | 10 µM, 72 h | inhibition | 100% |
| COc1ccc([C@@]23Oc4cc(OC)cc(OC)c4[C@@]24NC(C)=N[C@@]4(O)[C@H](C(=O)N(C)OC)[C@H]3c2ccccc2)cc1 | A549-ACE2 | cell growth or viability, ATP luminescence | – | 48 h | CC50 | 0.2 µM |
| COc1ncccc1-c1cnn2ccc(N3CCN(C(=O)OC(C)C)CC3)nc12 | Cyclin-dependent kinase 15 (CDK15, Homo sapiens, UniProt Q96Q40) | binding, competition with immobilised ligand | – | 1 µM | remaining binding | 100% |
| CC(C)C(=O)OCc1cc2[nH]c(=S)n(Cc3cncc(C#N)c3)c(=O)c2cc1Cl | 4'-phosphopantetheinyl transferase PptT (Mycobacterium tuberculosis, UniProt O33336) | enzyme activity, inhibitor, FP | – | – | IC50 | 84.7 µM |
| CC[C@H](C)[C@H]1C(=O)N[C@@H](Cc2ccc(O)cc2)C(=O)N2CCC[C@H]2C(=O)N[C@H]([C@H](C)O)C(=O)N[C@@H](CC(C)C)C(=O)N[C@@H](C(C)C)C(=O)N[C@@H](C)C(=O)N[C@@H](C)C(=O)N[C@@H](CO)C(=O)N[C@@H](Cc2ccccc2)C(=O)NCC(=O)N[C@H](C(=O)O)CSSC[C@H](N)C(=O)N1C | – | – | aqueous buffer | 18 h, pH 7.4 | solubility | 851 µM |
| Cc1ncc2n1-c1ccc(Cl)cc1C(c1ccccc1F)=NC2 | – | metabolic stability | minipig, hepatocytes | 1 µM, 4 h | compound remaining | 42% |
| COc1ccc([C@@]23Oc4cc(OC)cc(OC)c4[C@@]24N=C(C2CC2)N[C@@]4(O)[C@H](C(=O)N(C)OC)[C@H]3c2ccccc2)cc1 | – | metabolic stability | male CD-1 mouse, liver microsomes | 1 µM, pH 7.4 | half-life | 1.5 min |
| C#Cc1ccc2c(c1)C(c1ccccn1)=NCc1c(-c3cnco3)ncn1-2 | – | – | water | 24 h, 25 °C | solubility | 468 µg/mL |
| CC(C)C[C@@H]1NC(=O)[C@@H](CCCNC(=N)N)NC(=O)[C@@H](Cc2ccc(O)cc2)NC(=O)[C@H]2CCCN2C(=O)[C@H](CC(C)C)NC(=O)[C@H](CC(C)C)NC(=O)[C@@H]2CCCN2C(=O)[C@H]([C@@H](C)O)NC(=O)[C@H]([C@@H](C)O)NC(=O)CNC(=O)CNC1=O | – | – | aqueous buffer | 18 h, pH 7.4 | thermodynamic solubility | 607 µM (≈ 710 µg/mL) |
| CCOC(=O)C1=C(CN2CCC[C@@H]2C(=O)Nc2ccc(B(O)O)cc2)NC(c2nccs2)=N[C@@H]1c1ccc(F)cc1Br | HepDES19 | cell growth or viability, MTS | – | 72 h | CC50 | 42 µM |
| Cc1nn(C)cc1-c1nc2c(N3CCN(Cc4ccc(Cl)cc4)CC3)c(Cl)cnc2[nH]1 | Mitogen-activated protein kinase kinase kinase 15 (MAP3K15, Homo sapiens, UniProt Q6ZN16) | binding, competition with immobilised ligand | – | 1 µM | remaining binding | 66% |
| CC(C)C[C@H]1C(=O)N(C)[C@@H](CC(C)C)C(=O)N[C@H](Cc2ccc(O)cc2)C(=O)N2CCC[C@@H]2C(=O)N[C@H]([C@H](C)O)C(=O)NCC(=O)NCC(=O)N[C@@H](CO)C(=O)N[C@@H](C(C)C)C(=O)N[C@@H](C)C(=O)N[C@@H](C)C(=O)N[C@@H](Cc2ccccc2)C(=O)N1C | – | – | aqueous buffer | 18 h, pH 7.4 | solubility | 589 µM |
| CC(C)C[C@H](NC(=O)/C=C/c1ccccc1)C(=O)N[C@H](C=O)C[C@@H]1CCCNC1=O | A549 | cell growth or viability, MTT | – | 24 h | CC50 | > 100 µM |

A few entries again:
| Structure (SMILES) | target or system | test | system | conditions | measurement | value |
| --- | --- | --- | --- | --- | --- | --- |
| COc1ccc([C@@]23Oc4cc(OC)cc(OC)c4[C@@]24N=C(C2CC2)N[C@@]4(O)[C@H](C(=O)N(C)OC)[C@H]3c2ccccc2)cc1 | – | metabolic stability | male CD-1 mouse, liver microsomes | 1 µM, pH 7.4 | half-life | 1.5 min |
| C#Cc1ccc2c(c1)C(c1ccccn1)=NCc1c(-c3cnco3)ncn1-2 | – | – | water | 24 h, 25 °C | solubility | 468 µg/mL |
| CC(C)C[C@@H]1NC(=O)[C@@H](CCCNC(=N)N)NC(=O)[C@@H](Cc2ccc(O)cc2)NC(=O)[C@H]2CCCN2C(=O)[C@H](CC(C)C)NC(=O)[C@H](CC(C)C)NC(=O)[C@@H]2CCCN2C(=O)[C@H]([C@@H](C)O)NC(=O)[C@H]([C@@H](C)O)NC(=O)CNC(=O)CNC1=O | – | – | aqueous buffer | 18 h, pH 7.4 | thermodynamic solubility | 607 µM (≈ 710 µg/mL) |
